# Results gathered from unrelated publications.
# Each line is one published result; not all experiments were run side by side.
# Target: Serine/threonine-protein kinase ICK (CILK1, Homo sapiens, UniProt Q9UPZ9)
Compound,assay,conditions,how to read,quantity,value
CN1CCN(Cc2ccc(-c3ccc(CO[C@H]4CCC[C@@H]4NC(=O)c4cc(-c5cnn(C)c5)cnc4N)cc3)cc2)CC1,"enzyme activity, inhibitor",0.1 µM,,inhibition,2%
NC(=O)[C@@H](O)C[C@H]1CCc2sc3ncnc(O[C@H]4CC[C@H](N5CCOCC5)CC4)c3c21,"enzyme activity, inhibitor",10 µM,,inhibition,14%
O=C(Nc1cc(-c2ccnc3[nH]ccc23)c(Cl)cn1)[C@H]1CCC[C@@H](NC(=O)C(F)(F)F)C1,"binding, competition with immobilised ligand",0.1 µM,,remaining binding,21%
Nc1ncc(-c2cc(-c3cnn(CC(F)(F)F)c3)ncc2F)nc1C(=O)NC1CNCC(F)C1 (stereo not shown),enzyme activity,1 µM,relative to: DMSO control,remaining activity,94%
O=C(Cc1ccc(OCc2ccccc2)cc1)NC1(C(=O)O)CCN(C(=O)c2ccc(-c3cccc(Cl)c3)cc2)CC1,"enzyme activity, inhibitor",10 µM,,activity vs control,125%
COc1c(Cl)cccc1Nc1c(-c2ccncc2C#C[C@@]2(C)CCCN2C(=O)/C=C/CN(C)C)[nH]c2c1C(=O)NCC2,"binding, competition with immobilised ligand",3 µM,,remaining binding,64%
Nc1ncc2c(n1)-c1c([nH]c3ccc(C4=CCOCC4)cc13)CCC2,"binding, competition with immobilised ligand",1 µM,,remaining binding,86%
C=CC(=O)N1Cc2nc(-c3cc(-c4cc(Cl)cnc4Cl)c(F)cc3F)n(-c3ccncn3)c2C1,"cell-free assay, inhibitor",1 µM,,inhibition,0.4%
CC(C)=CC1OC(C)(C)C2C=C3C(=O)C(Cl)=CC(O)C3C3C(O)C4OC4C(=O)C132 (stereo not shown),"cell-free assay, competition with immobilised ligand",10 µM,,remaining binding,79%
C=CC(=O)N1CCc2ccc(-n3c(=O)ccc4cnc5ccc(-c6cnn(C)c6)cc5c43)cc21,KINOMEscan,1 µM,relative to: DMSO control,remaining binding,100%
Cc1ccc(-c2c(/C=C(\C#N)C(=O)NC(C)C)n(CCCO)c3ncnc(N)c23)cc1,"cell-free assay, competition with immobilised ligand",1 µM,,remaining binding,100%
CCN1CCN(Cc2ccc(C(=O)Nc3ccc(C)c(NCc4cnc5[nH]ccc5c4OC)c3)cc2C(F)(F)F)CC1,"binding, competition with immobilised ligand",1 µM,,remaining binding,54%
CCn1cc(C(=O)O)c(=O)c2c(N)c(F)c(NC3CCCCC3)cc21,kinase activity,"0.1 µM, together with: ATP at Km",,inhibition,4.6%
NC(=O)C[C@H]1CCc2sc3ncnc(O[C@H]4CC[C@H](N5CCOCC5)CC4)c3c21,"enzyme activity, inhibitor",10 µM,,inhibition,2%
CN1CC[C@@H](COc2cnc(C#N)cc2-c2ccn3nc(NC(=O)C4CC4)cc3c2)C1,"enzyme activity, inhibitor",1 µM,,inhibition,8%
Cc1cnc2nc1Nc1cccc(c1)COC/C=C/COCc1cc(ccc1OCCN1CCOCC1)N2,binding,0.1 µM,,remaining binding,85%
CNC1C[S+]2CC[S+]3CC[S+](C1)[Ru-4]321([N]=C=S)[n]2c3ccc(OC)cc3c3c4c(c5cc(F)c[n+]1c5c32)C(=O)NC4=O (stereo not shown),KinomeScan,0.1 µM,relative to: untreated,remaining binding,71%
CNC(=O)C1CCN(c2cc(C)c(F)cc2NC(=O)c2ccc(-c3cc(O)ccc3C)c(C)c2)CC1,"binding, competition with immobilised ligand",1 µM,,remaining binding,100%
COc1cc(Nc2nccc(-c3cnn4nc(OC)ccc34)n2)cc(C(F)(F)F)c1,"binding, competition with immobilised ligand",1 µM,,remaining binding,100%
